Results collected from several papers.
Compare with care: the assays were run in different laboratories. ± gives the spread as reported. Values after ≈ are worked out from the molar mass of the structure shown.

CNCc1ccc2c(c1)N(C(=O)OCc1c(F)c(F)c(F)c(F)c1F)[C@H](CNC(=N)N)[C@H]2NC(=O)C(=O)Nc1ccc(Cl)c(F)c1
IC80 (HIV-1; viral infection; TZM-bl, CRF02_AG 263-8 Env pseudovirus): 1130 nM

Cc1ncsc1-c1ccc(C(C)NC(=O)C2CC(O)CN2C(=O)C(NC(=O)CCCCCCCCCCN2CCCC(Nc3ncc(Cl)c(Nc4ccccc4S(=O)(=O)C(C)C)n3)C2)C(C)(C)C)cc1 (stereo not shown)
log2 fold change (22Rv1; RNA-seq, item: TAOK3 mRNA; concentration not given; reference: DMSO): -1

NCCOCCO.O=C(O)C(Cl)Cl
inhibition (Amaranthus retroflexus; herbicidal activity; 15 mg/mL, 21 days, pre-emergence greenhouse): 0%

CC(NC(=O)c1ccccc1)C(CCCCCCCCCCCCCCC(=O)CCCCCCCC(OC(=O)c1ccccc1)C(C)NC(=O)c1ccccc1)OC(=O)c1ccccc1 (stereo not shown)
growth inhibition (Acinetobacter baumannii; resazurin; ATCC 19606; 50 µM): 0 ± 7.06%

C=CC(=O)Nc1cccc(Cn2ncc3cnc(Nc4cnn(CCOC)c4)nc32)c1
percent of control (PRKCE human; binding, KINOMEscan; 100 nM; lower = stronger binding): 100%

Cc1c(CN(C)C(=O)/C=C/c2cnc3c(c2)CC(N)C(=O)N3)oc2ccccc12 (stereo not shown)
MIC (Klebsiella pneumoniae; broth microdilution; AR-0548): 32 µg/mL (≈ 82 µM)

COC1C=COC2(C)Oc3c(C)c(O)c4c(c3C2=O)C2=NC3(CCN(CC(C)C)CC3)NC2=C(NC(=O)C(C)=CC=CC(C)C(O)C(C)C(O)C(C)C(OC(=O)Nc2cccnn2)C1C)C4=O (stereo not shown)
IC90 (Mycobacteroides abscessus; bacterial growth; subsp. massiliense clinical isolate; slow grower): 14 nM

Cc1cccc2c1N(C(=O)n1ccnn1)CC2
hypocotyl length (Arabidopsis thaliana; kai2-2 mutant, seedlings; 5 µM, added: (±)-GR24 1 µM): 2.84 mm

CC(C)C[C@H](NC(=O)[C@H](Cc1ccc(O)cc1)NC(=O)[C@@H]1CCCN1C(=O)[C@H](CCCNC(=N)N)NC(=O)[C@@H]1CCCN1C(=O)[C@H](CCCCN)NC(=O)[C@H](CC(=O)O)NC(=O)[C@@H]1CCCN1C(=O)[C@H](CCCNC(=N)N)NC(=O)C1(N)CCCCC1)C(=O)N1CCC[C@H]1C(=O)N[C@@H](CCCNC(=N)N)C(=O)N1CCC[C@H]1C(=O)N[C@@H](CCCNC(=N)N)C(=O)N1CCC[C@H]1C(=O)N1CCC[C@H]1C(=O)N[C@@H](CCCNC(=N)N)C(=O)N1CCC[C@H]1C(=O)N[C@H](C(=O)N[C@@H](CCCNC(=N)N)C(=O)N[C@@H](CSc1c(F)c(F)c(-c2c(F)c(F)c(SC[C@H](NC(=O)[C@H](CCCNC(=N)N)NC(=O)[C@@H](NC(=O)[C@@H]3CCCN3C(=O)[C@H](CCCNC(=N)N)NC(=O)[C@@H]3CCCN3C(=O)[C@@H]3CCCN3C(=O)[C@H](CCCNC(=N)N)NC(=O)[C@@H]3CCCN3C(=O)[C@H](CCCNC(=N)N)NC(=O)[C@@H]3CCCN3C(=O)[C@H](CC(C)C)NC(=O)[C@H](Cc3ccc(O)cc3)NC(=O)[C@@H]3CCCN3C(=O)[C@H](CCCNC(=N)N)NC(=O)[C@@H]3CCCN3C(=O)[C@H](CCCCN)NC(=O)[C@H](CC(=O)O)NC(=O)[C@@H]3CCCN3C(=O)[C@H](CCCNC(=N)N)NC(=O)C3(N)CCCCC3)C(C)C)C(=O)NN)c(F)c2F)c(F)c1F)C(=O)NN)C(C)C
MDC (Acinetobacter baumannii; membrane disruption, propidium iodide uptake; 19606; 90 min, 37 °C): 4.5 ± 0.1 µg/mL

C[C@@H]1C(=O)O[C@@H](C)/C=C/C=C\[C@@H](C)[C@@H]2C=C[C@@H]3C[C@@]4(C)O[C@H]4[C@@H](C)[C@H]3[C@@H]2C(=O)C(Cl)(Cl)C1=O
MIC (Staphylococcus aureus; MSSA clinical isolate; resistant: CIP,DAP,ERY,MXF): 0.0125 µg/mL (≈ 0.0252 µM)

COC1CN([C@H]2CC[C@H]([C@@]3(C)Oc4c(Cl)cc(C(=O)NCc5c(SC)cc(C)[nH]c5=O)c(C)c4O3)CC2)C1
log2 fold change (RNA-seq, item: NATD1 mouse homolog; mouse, HT-1376 xenograft, whole blood; dose not given; reference: vehicle): 0.112

CNS(=O)(=O)Nc1nccc(Cc2c(C)c3ccc(Oc4ncccc4F)cc3oc2=O)c1F
IC50 (RL; cell viability, CellTiter-Glo; 7 days): 3.62 nM

C=C(NC(=O)c1csc(-c2nc3c(cc2O)-c2nc(cs2)C(=O)NC(C(C)O)C(=O)NC(=C(C)OC)c2nc(cs2)C(=O)NC2c4nc(cs4)C(=O)NC(COC(=O)c4c5c6c(cccc6n4O)COC(=O)C(OC4CC(C)(O)C(N(C)C)C(C)O4)C2OC5)c2nc-3cs2)n1)C(N)=O (stereo not shown)
MIC50 (Staphylococcus epidermidis; methicillin-resistant, 10 isolates; pH 7.0): 0.0156 µg/mL (≈ 0.0109 µM)

Nc1ncc(-c2cc(-c3cnn(CC(F)(F)F)c3)ncc2F)nc1C(=O)NC1CNCC(F)C1 (stereo not shown)
remaining binding (PRKG1; KINOMEscan; 1 µM; reference: DMSO control): 100%

CC(O)CNCC(C)O.O=C(O)C(Cl)Cl (stereo not shown)
herbicidal inhibition (Eleusine indica; 15 mg/mL, 21 days, post-emergence, greenhouse): 0%

Cc1ccc(S(=O)(=O)n2cc3c4c2C(=O)C(N)=CC4=NCC3)cc1
IC50 (Babesia divergens; parasite growth, SYBR Green; 60 h, blood stage): 597 nM

A few entries again:
Cc1c(CN(C)C(=O)/C=C/c2cnc3c(c2)CC(N)C(=O)N3)oc2ccccc12 (stereo not shown)
MIC (Klebsiella pneumoniae; broth microdilution; AR-0548): 32 µg/mL (≈ 82 µM)
